Published values gathered from unrelated publications.
Protocols differ between the studies behind these lines. Numbers after ± are the reported error.

| Substance | test system | setting | how to read | measurement | value |
| --- | --- | --- | --- | --- | --- |
| N[C@@H](CC(=O)O)Cn1nnc(-c2ccc(Oc3ncc(Cl)cc3F)cc2)n1 | human, blood | 20 mg twice daily, 12 h | – | trough concentration at steady state | 50 to 60 ng/mL |
| CO[C@H]1C[C@@H]2CC[C@@H](C)[C@@](O)(O2)C(=O)C(=O)N2CCCC[C@H]2C(=O)O[C@H]([C@H](C)C[C@@H]2CC[C@@H](OCCO)[C@H](OC)C2)CC(=O)[C@H](C)/C=C(\C)[C@@H](O)[C@@H](OC)C(=O)[C@H](C)C[C@H](C)/C=C/C=C/C=C/1C | human patients, plasma | oral, 10 mg once daily, cycle 2 day 1, predose, added: pasireotide | – | trough concentration | 9.2 ng/mL |
| teicoplanin | human, CrCl below 40 mL/min, serum | intravenous, 400 mg q12h loading, 200 mg/day, day 4 | – | trough concentration | 17100 ± 5660 ng/mL |
| C[C@@H](Oc1ccc(S(C)(=O)=O)cc1C(=O)N1C[C@@H]2C[C@]2(c2cc(C(F)(F)F)on2)C1)C(F)(F)F | human male, CSF | oral, 10 mg once daily, 312 h | – | trough concentration | 9.7 nM |
| C#C[C@]1(O)CC[C@H]2[C@@H]3CCC4=CC(=O)CC[C@@H]4[C@H]3CC[C@@]21C | human female, serum | oral, 0.35 mg daily, 24 h, day 22, geometric mean, added: atazanavir/ritonavir | – | trough concentration | 0.45 ng/mL |
| O=C(Nc1c(Cl)cncc1Cl)c1ccc(OC(F)F)c(OCC2CC2)c1 | human, age 18 years or older, plasma | topical, 0.3 % cream, week 8, mean | – | trough plasma concentration | 1.72 ng/mL |
| Cc1ccc([C@@H]2O[C@H](CO)[C@@H](O)[C@H](O)[C@H]2O)cc1Cc1ccc(-c2ccc(F)cc2)s1 | human, plasma | oral, day 7 | relative to: day 7 over day 16 predose | trough concentration ratio | 0.93 to 1 |
| C=C(C)[C@@H]1CC[C@]2(NCCN3CCS(=O)(=O)CC3)CC[C@]3(C)[C@H](CC[C@@H]4[C@@]5(C)CC=C(C6=CC[C@@](CF)(C(=O)O)CC6)C(C)(C)[C@@H]5CC[C@]43C)[C@@H]12 | human, plasma | oral, 50 to 320 mg daily, 14 days | – | trough concentration | 186 to 980 ng/mL |
| O=C(O)COC[C@H]1CC[C@H](COC(=O)N(c2ccccc2)c2ccc(Cl)cc2)CC1 | human, plasma | oral, 70 µg twice daily | – | trough concentration at steady state | 1.79 ng/mL |
